Published values from different studies.
Each line is one published result; not all experiments were run side by side.
UniProt Q9UBN7, sequence (whole entry, looked up): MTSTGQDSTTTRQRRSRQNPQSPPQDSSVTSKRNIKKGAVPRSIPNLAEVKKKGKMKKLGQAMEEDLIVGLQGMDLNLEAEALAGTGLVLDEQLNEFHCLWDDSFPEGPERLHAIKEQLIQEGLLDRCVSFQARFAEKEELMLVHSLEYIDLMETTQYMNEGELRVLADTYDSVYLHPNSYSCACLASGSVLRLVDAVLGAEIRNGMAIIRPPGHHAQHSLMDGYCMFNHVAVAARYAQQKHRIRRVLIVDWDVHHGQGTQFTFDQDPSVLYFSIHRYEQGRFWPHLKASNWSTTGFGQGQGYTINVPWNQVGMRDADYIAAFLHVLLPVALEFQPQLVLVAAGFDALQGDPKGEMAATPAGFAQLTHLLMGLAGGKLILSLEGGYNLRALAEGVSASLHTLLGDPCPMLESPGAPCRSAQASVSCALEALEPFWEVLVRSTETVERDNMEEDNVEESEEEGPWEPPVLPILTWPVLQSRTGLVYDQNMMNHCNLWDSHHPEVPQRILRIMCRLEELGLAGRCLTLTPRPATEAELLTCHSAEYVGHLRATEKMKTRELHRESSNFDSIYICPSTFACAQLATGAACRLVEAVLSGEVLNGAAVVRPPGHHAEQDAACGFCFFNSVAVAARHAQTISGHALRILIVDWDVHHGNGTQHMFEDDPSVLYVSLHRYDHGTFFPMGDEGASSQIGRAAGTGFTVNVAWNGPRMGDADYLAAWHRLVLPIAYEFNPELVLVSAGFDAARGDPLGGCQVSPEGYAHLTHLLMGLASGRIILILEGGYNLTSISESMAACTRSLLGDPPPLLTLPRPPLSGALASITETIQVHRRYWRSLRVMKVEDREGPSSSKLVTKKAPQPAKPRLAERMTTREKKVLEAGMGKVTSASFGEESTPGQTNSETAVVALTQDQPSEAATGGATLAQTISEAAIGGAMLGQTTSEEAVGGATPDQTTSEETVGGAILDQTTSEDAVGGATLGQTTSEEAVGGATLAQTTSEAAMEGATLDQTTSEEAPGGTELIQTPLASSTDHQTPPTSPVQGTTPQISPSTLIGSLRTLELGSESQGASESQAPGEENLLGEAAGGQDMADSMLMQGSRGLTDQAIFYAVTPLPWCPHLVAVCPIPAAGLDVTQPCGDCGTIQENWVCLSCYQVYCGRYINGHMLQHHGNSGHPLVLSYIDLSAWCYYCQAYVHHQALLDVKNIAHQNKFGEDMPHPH
UniProt Q92995, sequence (whole entry, looked up): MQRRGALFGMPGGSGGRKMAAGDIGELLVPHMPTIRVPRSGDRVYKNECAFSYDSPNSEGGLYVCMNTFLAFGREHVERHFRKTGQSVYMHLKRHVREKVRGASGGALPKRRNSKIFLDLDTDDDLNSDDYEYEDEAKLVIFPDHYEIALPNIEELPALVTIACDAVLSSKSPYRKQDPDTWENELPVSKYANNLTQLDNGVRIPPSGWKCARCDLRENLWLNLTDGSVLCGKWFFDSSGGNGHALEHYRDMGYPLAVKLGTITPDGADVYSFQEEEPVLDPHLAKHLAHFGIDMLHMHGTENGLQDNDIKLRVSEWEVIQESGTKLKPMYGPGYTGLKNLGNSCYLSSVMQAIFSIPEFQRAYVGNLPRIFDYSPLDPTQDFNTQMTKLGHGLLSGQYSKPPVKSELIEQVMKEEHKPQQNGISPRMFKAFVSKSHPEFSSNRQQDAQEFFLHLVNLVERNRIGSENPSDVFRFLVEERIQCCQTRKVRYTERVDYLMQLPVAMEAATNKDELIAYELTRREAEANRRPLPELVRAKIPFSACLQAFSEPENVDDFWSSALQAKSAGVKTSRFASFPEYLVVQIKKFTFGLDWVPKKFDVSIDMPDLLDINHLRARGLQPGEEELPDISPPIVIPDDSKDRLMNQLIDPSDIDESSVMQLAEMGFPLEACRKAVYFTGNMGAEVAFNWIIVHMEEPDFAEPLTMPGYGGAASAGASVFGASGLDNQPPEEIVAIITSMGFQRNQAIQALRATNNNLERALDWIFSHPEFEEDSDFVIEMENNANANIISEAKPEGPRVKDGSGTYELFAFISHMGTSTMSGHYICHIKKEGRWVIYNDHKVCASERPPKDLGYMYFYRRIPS

| Structure (SMILES) | tested on | assay | test system | conditions | scale | endpoint | value |
| --- | --- | --- | --- | --- | --- | --- | --- |
| CCn1cc(-c2cc(Cn3ccnc3)cc3c2CCN([C@H](c2cc(OC)ccn2)C2CC2)C3=O)c(C(F)(F)F)n1 | NCI-H2228 | cell growth, inhibitor |  | 120 h |  | EC50 | 17.1 µM |
| O=C(O)CCc1cnn(-c2ccccc2)c1 | Ubiquitin carboxyl-terminal hydrolase 13, ZnF-UBD domain (USP13, Homo sapiens, UniProt Q92995) |  |  |  |  | Kd | > 1000 µM |
| CC(C)NCC(O)c1ccc(O)c(O)c1 (stereo not drawn) |  |  | ventricular cardiomyocytes, C57BL/6 mouse | dose not given, 0.624 s |  | sarcomere length | 1.72 µm |
| Oc1ccccc1-c1n[nH]cc1-c1ccnc2ccccc12 | CDC15 (Candida albicans) | kinase binding, MIB/MS competition | Candida albicans lysate | 1 µM | baseline: DMSO | log2 fold change | 0.26 |
| CC(=O)O[C@H]1C(=O)[C@@]2(C)[C@H]([C@H](OC(=O)c3ccccc3)[C@]3(O)C[C@H](OC(=O)[C@H](O)[C@@H](NC(=O)c4ccccc4)c4ccccc4)C(C)=C1C3(C)C)[C@]1(OC(C)=O)CO[C@@H]1C[C@@H]2O | human seizure ion channel panel | ion current, automated patch clamp |  |  |  | lowest IC30 across channels | > 30 µM |
| C[C@H]1C[C@H]2CSC(N)=N[C@@]2(c2nc(NC(=O)c3ccc(OC(F)F)cn3)cs2)CO1 |  | measured: total Aβ | healthy adults, plasma | 540 mg single dose, 48 h post-dose | baseline: placebo | percent change from baseline | -65.2% |
| Cc1nc2n(c(=O)c1CCN1CCC(c3noc4cc(F)ccc34)CC1)CCCC2 | H+/organic cation antiporter | cell uptake | hCMEC/D3 |  |  | Km | 92.1 µM |
| NC(=O)c1cnc2[nH]ccc2c1N[C@@H]1[C@@H]2CC3C[C@H]1C[C@@](O)(C3)C2 |  | flow cytometry | Caucasian healthy men, blood | oral, 200 mg single dose, 24 h | baseline: baseline | total memory T-cell change | 1.25% |
| COc1cnc2cccc(N3CCc4c(cc(Cn5ccnc5C)cc4-c4cn(C)nc4C(F)(F)F)C3=O)c2c1 | NCI-H2228 | cell growth, inhibitor |  | 120 h |  | EC50 | > 30 µM |
| Cn1cc(-c2ccc(-c3cncc(Cl)c3N3CCC4(CCNC4=O)CC3)cc2)cn1 | COLO 205 | gene expression, microarray, measured: NRP1 mRNA |  | concentration not given, 6 h | baseline: untreated cells | log2 fold change | 2.74 |
| CC(C)NCC(O)COc1ccc(COCCOC(C)C)cc1 (stereo not drawn) | H+/organic cation antiporter | cell uptake | hCMEC/D3 |  |  | Km | 93.9 µM |
| O=C(O)CCOc1ccccc1 | Protein deacetylase HDAC6, ZnF-UBD domain (HDAC6, Homo sapiens, UniProt Q9UBN7) |  |  |  |  | Kd | > 1000 µM |
| c1coc(-c2n[nH]cc2-c2ccnc3ccccc23)c1 | SAK1 (Candida albicans) | kinase binding, MIB/MS competition | Candida albicans lysate | 10 µM | baseline: DMSO | log2 fold change | -0.07 |
| CCCCNc1ccc(C(=O)OCCN(C)C)cc1 | H+/organic cation antiporter | cell uptake | hCMEC/D3 |  |  | Km | 123 µM |
| OC(CCN1CCCCC1)(c1ccccc1)C1CC2C=CC1C2 (stereo not drawn) |  | resting-state EEG | healthy elderly humans | oral, 4 mg, eyes closed, LS mean | baseline: baseline | change, beta power, EEG O1-Pz | -12.2% |

For quick reference, copied from above:
| Structure (SMILES) | tested on | assay | test system | conditions | scale | endpoint | value |
| --- | --- | --- | --- | --- | --- | --- | --- |
| CCCCNc1ccc(C(=O)OCCN(C)C)cc1 | H+/organic cation antiporter | cell uptake | hCMEC/D3 |  |  | Km | 123 µM |
